Measured values pooled from the literature.
Compare with care: the assays were run in different laboratories. Values joined by “and” are separate records of one study, mostly repeats; a detail may differ. ± marks the error that the study gave.
Cell line: A549

Structure (SMILES) | effect on | technique | time | setting | together with | IC50
CC(=O)O[C@@H]1CC[C@@]2(C)[C@@H](CC[C@]3(C)[C@@H]2C(=O)C=C2[C@@H]4[C@@H](C)[C@H](C)CC[C@]4(C)CC[C@]23C)[C@@]1(C)C(=O)NCCNC(=O)CCCCCCCCCCBr | cell growth or viability | MTT | 48 h | – | – | > 30 µM
Cc1ccc(C2C([N+](=O)[O-])C(Cc3ccc(O)cc3)NC23C(=O)c2cccc4cccc3c24)cc1 (stereo not shown) | cell growth or viability | MTT | 48 h | – | – | 35.8 µM
N#Cc1cccc(-c2ccc(=O)n(Cc3cccc(-c4ncc(OCC5CCN(CC(=O)NCCOCCOCCOCCNc6ccc7c(c6)C(=O)N(C6CCC(=O)NC6=O)C7=O)CC5)cn4)c3)n2)c1 (stereo not shown) | cell growth or viability | CCK-8 | 72 h | – | – | 0.433 µM
O=C(Cc1ccccc1)NC(=S)Nc1nccs1 | cell growth or viability | MTT | 48 h | – | – | 57.5 µM
CC[C@@]1(C)CC[C@H]2[C@@](C)(CC[C@@]3(C)[C@@H]4CC(C)(C)CC[C@]4(C)CC[C@]23C)[C@@H]1CCC(=O)O | cell growth or viability | SRB | – | – | – | 34 µM
C=C1C2C(OC(=O)c3ccccc3)C3C4N(C)C5C(O)C3(C1O)C(C2OC(C)=O)C41C(OC(C)=O)C(OC(=O)c2ccccc2)CC(C)(C=O)C51 (stereo not shown) | cell growth or viability | MTT | – | – | – | 64.2 µM
CC(=O)OC1CCC2(C)C3=CCC4(C)C(C(C)CCC=C(C)C)CC(O)C4(C)C3=CCC2C1(C)C (stereo not shown) | cell viability | MTT | 72 h | – | – | inactive
COc1ccccc1C(=O)c1c(-n2c(C(=O)c3ccccc3OC)cc(Cl)c2Cl)c(Cl)c(Cl)n1C | cell growth or viability | resazurin | 24 h | – | – | > 64 µg/mL
Cc1ccc(C(C)C)cc1.O=C(N=P(c1ccccc1)(c1ccccc1)c1ccccc1)c1[c-]cccc1.[Cl-].[Ru+2] | cell growth or viability | MTT | 24 h | – | – | 29.9 µM
CC(=O)OC[C@]1(C)CCC[C@]2(CO)[C@@H]1CC[C@@]13C[C@@H](C[C@H](O)[C@H]12)[C@H](C)C3=O | cell growth or viability | MTT | – | – | – | 9.8 µM
C[O][Pt-2]([NH3+])([NH3+])([Cl])([Cl])[O]C(=O)CCC(=O)OCCO | cell growth or viability | MTT | 96 h | – | – | 132 µM
Cc1cccc(-c2cccc(C)n2)n1.[Cl-].[Cl-].[Ru+2].c1ccc(-c2ccccn2)nc1.c1ccc(-c2ccccn2)nc1 | – | resazurin | 72 h | – | indigo light 450 nm, 29.1 J/cm2 | 22.6 µM
CCOC(=O)c1ccc2c(c1)n(CC)[c]([Au-]([Cl])([Cl])[Cl])[n+]2CC | cell growth or viability | crystal violet | 72 h | – | – | 13.2 µM
COc1c(O)cc2oc3cc4c(c(O)c3c(=O)c2c1CC=C(C)C)C=CC(C)(C)O4 | cell growth or viability | – | 48 h | – | – | 11.5 µM
CC1=C(Cn2c3ccc(Cl)c(=O)c-3nc3ccccc32)CCC(C)(C)C1 | cell growth or viability | CCK-8 | 72 h | – | – | 0.75 µM
COc1c(C)c(OS(=O)(=O)c2ccccc2)c(C)c(O)c1C(=O)/C=C/c1ccccc1 | cell growth or viability | SRB | 72 h | – | – | 26.3 µM
CC(C)c1cccc(C(C)C)c1[N+]#[C][Pt-]([Cl])([Cl])=[C](Nc1cccc(CN[C](Nc2c(C(C)C)cccc2C(C)C)=[Au][Cl])c1)Nc1c(C(C)C)cccc1C(C)C | cell growth or viability | – | – | – | – | > 100 µM
CCCCCCCCSc1nc(N)c2c(F)c(C#N)c(F)c(F)c2n1 | cell growth or viability | MTT | 96 h | – | – | > 100 µM
COc1ccc(/C=C/C2=[N+]3C(=C(COC(C)=O)c4c(C)cc(/C=C/c5ccc(OC)cc5)n4[B-]3(F)F)C(C)=C2)cc1 | phototoxicity | resazurin | – | – | 645 nm light, 9.00 J/cm2 | 11 ± 3 µM
COc1ccc([C@@H]2CC(=O)c3c(O)cc(O[C@@H]4O[C@H](CO[C@@H]5O[C@@H](C)[C@H](O)[C@@H](O)[C@H]5O)[C@@H](O[C@H]5O[C@H](CO)[C@@H](O)[C@H](O)[C@H]5O)[C@H](O)[C@H]4O)cc3O2)cc1O | cell growth or viability | trypan blue | 72 h | – | – | 88.8 µg/mL
CN(C)CCO/N=C1/C=C2CCC3C(CC[C@]4(C)/C(=C/c5ccccn5)CCC34)[C@@]2(C)CC1 (stereo partly shown) | cell growth or viability | MTT | 72 h | – | – | 82.8 µM
CCCc1cc(O)nc(SCCOC(=O)[C@]2(C)CCC[C@]3(C)c4ccc(C(C)C)cc4CCC23)n1 (stereo partly shown) | cell growth or viability | MTT | 48 h | – | – | 11.9 µM
CC(=O)[O-].O.O.[O-]c1ccc(Br)cc1C=NCCN1CCOCC1.[Zn+2] | cell viability | MTT | 72 h | – | – | 30.4 µg/mL
S=c1n(-c2ccccc2)c2c3ccccc3nc3[n+]2[n]1[Ir-3]12([S]3)([c]3ccccc3-c3cccc[n+]31)[c]1ccccc1-c1cccc[n+]12 | cell viability | MTT | – | dark | – | > 50 µM
CCOC(=O)/C(=N\Nc1ccc(S(=O)(=O)Nc2ncccn2)cc1)C(=O)c1ccccc1 | cell growth or viability | MTT | 48 h | – | – | 11.2 µM
Cc1cc(C#N)cc(C)c1Oc1cc(Nc2ccc(C#N)cc2)nc2cnccc12 | – | – | 48 h | – | – | > 128 µM
COC(=O)CCC(=O)[O][Pt-2]1([Cl])([Cl])([O]C)[NH2+]CC[N+]1(C)C | cell growth or viability | MTT | 96 h | – | – | 38 µM
Cc1ccc(C(C)C)cc1.Cc1ncc(CO)c(C=NNC2=Nc3ccccc3-c3[nH]c4ccc(Br)cc4c3C2)c1O.[Cl-].[Cl][Os+] | cell growth or viability | MTT | 96 h | – | – | 10 µM

Structure (SMILES) | effect on | technique | time | setting | together with | IC50
COc1ccc(C([O-])=CC(=O)c2ccc(C(C)(C)C)cc2)cc1.[Cl-].[Ru+2].c1ccc(-c2cccc(-c3ccccn3)n2)nc1 | cell growth or viability | – | 72 h | dark | – | 38.5 µM
CNC(=O)c1c(C)oc2cc(Oc3ncnc4cc(OC)c(OCCCCCCC(=O)NO)cc34)ccc12 | cell growth | CCK-8 | 48 h | – | – | 4.56 ± 0.33 µM
C=CC(=O)Nc1cc(Nc2nccc(-c3c(-c4cccc(F)c4)n(C)c4ccccc34)n2)c(OC)cc1N(C)CCN(C)C | cell growth or viability | MTT | 72 h | – | – | 0.433 µM
CCCCn1cc(C(=O)O)c(=O)c2cc(F)c(Nc3ccc(OC)cc3)c(N)c21 | cell growth or viability | SRB | 72 h | – | – | 4.91 µg/mL
Cc1cc(C)c(N[C](NCc2cccc(N[C](Nc3c(C(C)C)cccc3C(C)C)=[Pd-]([Cl])([Cl])[C]#[N+]c3c(C(C)C)cccc3C(C)C)c2)=[Au][Cl])c(C)c1 | cell growth or viability | – | – | – | – | > 100 µM
CN1CCC2(CC1)C/C(=N\NC(=O)Nc1ccc([N+](=O)[O-])cc1)c1ccccc1O2 | cell growth or viability | MTT | 48 h | – | – | 71.5 µM
O=C(NCCN1CCOCC1)c1cc2c3ccccc3n3c(=O)ccc(n1)c23 | cell growth or viability | MTT | 72 h | – | – | 2.3 µM
CC(C)c1cccc(C(C)C)c1[N+]#[C][Pt-]([Cl])([Cl])=[C](Nc1ccc(CN[C](Nc2c(C(C)C)cccc2C(C)C)=[Au][Cl])cc1)Nc1c(C(C)C)cccc1C(C)C | cell growth or viability | – | – | – | – | > 100 µM
COC(=O)[C@@H]1CCCN1C(=O)[C@H](Cc1ccccc1)NC(=O)OC(C)(C)C | cell growth or viability | SRB | – | – | – | 6 µM
NCCNC(=O)c1ccc2[nH]c(/C(=N/Nc3ccc(F)cc3)c3ccc(O)cc3)nc2c1 | cell growth or viability | ATP luminescence | 72 h | – | – | 103 µM
COc1ccc(-c2coc3c(CC=C(C)C)c(O)c(CC=C(C)C)c(O)c3c2=O)cc1O | cell growth or viability | MTT | – | – | – | 105 µM
COCCOCCSc1nc(N)c2c(F)c(C#N)c(F)c(Cl)c2n1 | cell growth or viability | MTT | 96 h | – | – | 6.03 µM
CCCC(CCC)C(=O)[O][Pt]([Cl])([Cl])[O]C(=O)C(CCC)CCC.N.N | cell growth or viability | – | – | – | – | 1.12 µM
CC(=O)N[C@H]1C(n2cc([C@@](C)(O)c3cccc(F)c3)nn2)O[C@H](COCc2ccccc2)[C@H](OCc2ccccc2)[C@@H]1OCc1ccccc1 (stereo partly shown) | cell growth or viability | MTS | 72 h | – | – | 65.7 µM
Cc1c(C)c(C)[c-](C)c1C.Cc1ccnc(-c2[c-]cccc2)c1.[Cl-].[Ir+3] | – | SRB | 24 h | 72 h recovery | – | 8.7 ± 0.3 µM
Cc1[nH]c(=O)c(CNC(=O)c2ccc(C(F)(F)F)cc2)c2c1CCCC2 | cell growth or viability | MTT | 72 h | – | – | > 100 µg/mL
COc1ccc(C2=NN(C3=NC(=O)/C(=C/c4ccc(N(C)C)cc4)S3)C(c3ccc(F)cc3)C2)cc1 (stereo not shown) | cell growth or viability | MTT | – | – | – | 78.2 µM
[Cl-].[Cl-].[Ru+2].c1ccc(-c2ccccn2)nc1.c1ccc(-c2ccccn2)nc1.c1ccc(-c2ccnc3c2ccc2c(-c4ccccc4)ccnc23)cc1 | cell growth or viability | – | 72 h | dark | – | 66 µM and 66.4 µM
CC(=O)O[C@@H]1CC[C@@]2(C)[C@@H](CC[C@]3(C)[C@@H]2C(=O)C=C2[C@@H]4[C@@H](C)[C@H](C)CC[C@]4(C)CC[C@]23C)[C@@]1(C)C(=O)NCCNC(=O)CCCC[P+](c1ccccc1)(c1ccccc1)c1ccccc1 | cell growth or viability | MTT | 48 h | – | – | > 30 µM
Cc1ccc(S(=O)(=O)c2c(-c3ccccc3)c3c(C)c4cc(F)ccc4n3c3ccccc23)cc1 | cell growth or viability | MTT | 72 h | – | – | 16.4 µM
COc1c(O)cc2oc3c(Br)c(O)c(CC=C(C)C)c(O)c3c(=O)c2c1CC=C(C)C | cell growth or viability | – | 48 h | – | – | > 40 µM
Brc1ccc(Nc2nc(NN=Cc3c[nH]c4ccccc34)nc(N3CCOCC3)n2)cc1 | cell growth or viability | SRB | 5 days | – | – | 0.1 µM
O=[N+]([O-])[O-].O=[N+]([O-])[O-].[Cu+2].[Cu+2].c1ccc(-c2nc(-c3ccc4c(c3)OCO4)n[n-]2)nc1.c1ccc(-c2nc(-c3ccc4c(c3)OCO4)n[n-]2)nc1 | cell growth or viability | MTT | 24 h | – | – | 5.26 µM
CCCCCCCC(=O)NCCNC(=O)[C@@]1(C)[C@H](O)CC[C@@]2(C)[C@H]1CC[C@]1(C)[C@@H]2C(=O)C=C2[C@@H]3[C@@H](C)[C@H](C)CC[C@]3(C)CC[C@]21C | cell growth or viability | MTT | 48 h | – | – | 14.8 µM
O=C(Cn1cc(/C=C/C(=O)c2ccccc2)nn1)Nc1nc(-c2ccccc2)cs1 | cell growth or viability | MTT | 72 h | – | – | 0.13 µM
N#Cc1cccc(-c2ccc(=O)n(Cc3cccc(-c4ncc(OCC5CCN(CC(=O)NCCOCCNc6cccc7c6C(=O)N(C6CCC(=O)NC6=O)C7=O)CC5)cn4)c3)n2)c1 (stereo not shown) | cell growth or viability | CCK-8 | 72 h | – | – | 3.29 µM
COc1ccc(NC(=O)c2ccc(NC(=O)CN3C(=O)S/C(=C\c4ccccc4OC)C3=O)cc2)cc1 | cell growth or viability | MTT | – | – | – | 24.8 µM

Excerpt of the above:
Structure (SMILES) | effect on | technique | time | setting | together with | IC50
C=C1C2C(OC(=O)c3ccccc3)C3C4N(C)C5C(O)C3(C1O)C(C2OC(C)=O)C41C(OC(C)=O)C(OC(=O)c2ccccc2)CC(C)(C=O)C51 (stereo not shown) | cell growth or viability | MTT | – | – | – | 64.2 µM
CC(=O)OC[C@]1(C)CCC[C@]2(CO)[C@@H]1CC[C@@]13C[C@@H](C[C@H](O)[C@H]12)[C@H](C)C3=O | cell growth or viability | MTT | – | – | – | 9.8 µM
CC(=O)N[C@H]1C(n2cc([C@@](C)(O)c3cccc(F)c3)nn2)O[C@H](COCc2ccccc2)[C@H](OCc2ccccc2)[C@@H]1OCc1ccccc1 (stereo partly shown) | cell growth or viability | MTS | 72 h | – | – | 65.7 µM
Cc1cccc(-c2cccc(C)n2)n1.[Cl-].[Cl-].[Ru+2].c1ccc(-c2ccccn2)nc1.c1ccc(-c2ccccn2)nc1 | – | resazurin | 72 h | – | indigo light 450 nm, 29.1 J/cm2 | 22.6 µM
CC(=O)O[C@@H]1CC[C@@]2(C)[C@@H](CC[C@]3(C)[C@@H]2C(=O)C=C2[C@@H]4[C@@H](C)[C@H](C)CC[C@]4(C)CC[C@]23C)[C@@]1(C)C(=O)NCCNC(=O)CCCCCCCCCCBr | cell growth or viability | MTT | 48 h | – | – | > 30 µM
COc1ccc(C2=NN(C3=NC(=O)/C(=C/c4ccc(N(C)C)cc4)S3)C(c3ccc(F)cc3)C2)cc1 (stereo not shown) | cell growth or viability | MTT | – | – | – | 78.2 µM
